# Experimental data pooled from the literature.
# Numbered parts are unrelated; each lists some results of a single study.
# Sequence of UniProt P34947 (whole entry, looked up): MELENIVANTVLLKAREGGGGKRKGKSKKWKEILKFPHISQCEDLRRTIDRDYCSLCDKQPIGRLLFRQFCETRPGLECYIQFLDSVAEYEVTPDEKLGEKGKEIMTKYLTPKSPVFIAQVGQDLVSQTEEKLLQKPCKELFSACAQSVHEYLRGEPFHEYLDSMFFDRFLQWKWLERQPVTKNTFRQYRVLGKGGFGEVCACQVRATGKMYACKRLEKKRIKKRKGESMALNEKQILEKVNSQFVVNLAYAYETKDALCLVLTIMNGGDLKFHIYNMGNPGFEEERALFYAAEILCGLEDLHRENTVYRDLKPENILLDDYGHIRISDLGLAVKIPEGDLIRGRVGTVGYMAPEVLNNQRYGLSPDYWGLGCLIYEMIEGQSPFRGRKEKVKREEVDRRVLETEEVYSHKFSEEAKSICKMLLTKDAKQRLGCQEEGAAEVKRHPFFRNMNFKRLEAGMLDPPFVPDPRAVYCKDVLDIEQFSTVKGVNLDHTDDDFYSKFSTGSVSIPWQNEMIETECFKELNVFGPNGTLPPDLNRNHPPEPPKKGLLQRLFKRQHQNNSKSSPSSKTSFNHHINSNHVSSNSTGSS
# Sequence of UniProt Q9UKE5 (whole entry, looked up): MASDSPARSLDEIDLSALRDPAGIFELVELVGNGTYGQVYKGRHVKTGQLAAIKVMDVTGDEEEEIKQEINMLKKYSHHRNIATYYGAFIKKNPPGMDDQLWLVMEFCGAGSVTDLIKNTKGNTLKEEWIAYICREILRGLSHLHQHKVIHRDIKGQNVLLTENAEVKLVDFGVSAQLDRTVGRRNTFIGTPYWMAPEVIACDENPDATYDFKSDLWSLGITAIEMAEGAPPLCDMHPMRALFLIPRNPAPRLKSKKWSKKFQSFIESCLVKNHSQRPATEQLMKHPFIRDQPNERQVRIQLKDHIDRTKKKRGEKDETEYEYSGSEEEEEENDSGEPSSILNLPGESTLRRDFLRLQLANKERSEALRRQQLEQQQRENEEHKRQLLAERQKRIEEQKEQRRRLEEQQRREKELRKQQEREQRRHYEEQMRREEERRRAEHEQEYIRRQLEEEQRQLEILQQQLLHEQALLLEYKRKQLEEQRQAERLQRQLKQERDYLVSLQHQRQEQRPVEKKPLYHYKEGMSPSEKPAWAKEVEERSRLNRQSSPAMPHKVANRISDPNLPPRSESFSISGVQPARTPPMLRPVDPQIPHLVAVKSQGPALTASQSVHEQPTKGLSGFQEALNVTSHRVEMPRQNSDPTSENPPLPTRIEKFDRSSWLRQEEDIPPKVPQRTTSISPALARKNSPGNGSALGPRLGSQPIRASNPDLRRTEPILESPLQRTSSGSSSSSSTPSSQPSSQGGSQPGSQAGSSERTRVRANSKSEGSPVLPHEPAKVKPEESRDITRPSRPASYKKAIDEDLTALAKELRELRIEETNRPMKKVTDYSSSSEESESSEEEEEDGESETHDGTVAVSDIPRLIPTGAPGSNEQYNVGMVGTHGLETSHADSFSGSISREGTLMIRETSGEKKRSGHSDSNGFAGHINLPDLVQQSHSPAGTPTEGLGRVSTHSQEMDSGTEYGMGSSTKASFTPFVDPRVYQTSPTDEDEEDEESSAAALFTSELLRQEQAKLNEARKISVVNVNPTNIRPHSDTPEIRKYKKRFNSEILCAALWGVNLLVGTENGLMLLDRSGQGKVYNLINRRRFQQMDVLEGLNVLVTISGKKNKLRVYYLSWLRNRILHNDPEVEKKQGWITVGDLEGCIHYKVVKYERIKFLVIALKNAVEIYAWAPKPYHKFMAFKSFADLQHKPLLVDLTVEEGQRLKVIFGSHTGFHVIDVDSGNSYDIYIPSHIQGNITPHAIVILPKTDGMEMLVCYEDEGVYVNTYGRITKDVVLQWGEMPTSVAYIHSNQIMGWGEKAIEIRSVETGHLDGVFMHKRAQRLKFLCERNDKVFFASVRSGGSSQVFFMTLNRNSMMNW
# Sequence of UniProt P45983 (whole entry, looked up): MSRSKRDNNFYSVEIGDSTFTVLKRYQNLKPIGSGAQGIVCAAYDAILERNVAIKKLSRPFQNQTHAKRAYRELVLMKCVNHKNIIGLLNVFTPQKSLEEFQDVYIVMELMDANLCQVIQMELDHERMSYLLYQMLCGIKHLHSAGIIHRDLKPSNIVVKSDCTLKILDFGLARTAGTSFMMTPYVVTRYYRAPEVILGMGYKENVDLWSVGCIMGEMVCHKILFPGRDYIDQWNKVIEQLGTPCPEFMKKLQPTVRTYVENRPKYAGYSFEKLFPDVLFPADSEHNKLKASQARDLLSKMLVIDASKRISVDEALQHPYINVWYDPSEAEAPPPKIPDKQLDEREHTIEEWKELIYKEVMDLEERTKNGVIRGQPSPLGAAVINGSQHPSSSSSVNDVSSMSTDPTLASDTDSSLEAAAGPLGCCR
# Sequence of UniProt P54764 (whole entry, looked up): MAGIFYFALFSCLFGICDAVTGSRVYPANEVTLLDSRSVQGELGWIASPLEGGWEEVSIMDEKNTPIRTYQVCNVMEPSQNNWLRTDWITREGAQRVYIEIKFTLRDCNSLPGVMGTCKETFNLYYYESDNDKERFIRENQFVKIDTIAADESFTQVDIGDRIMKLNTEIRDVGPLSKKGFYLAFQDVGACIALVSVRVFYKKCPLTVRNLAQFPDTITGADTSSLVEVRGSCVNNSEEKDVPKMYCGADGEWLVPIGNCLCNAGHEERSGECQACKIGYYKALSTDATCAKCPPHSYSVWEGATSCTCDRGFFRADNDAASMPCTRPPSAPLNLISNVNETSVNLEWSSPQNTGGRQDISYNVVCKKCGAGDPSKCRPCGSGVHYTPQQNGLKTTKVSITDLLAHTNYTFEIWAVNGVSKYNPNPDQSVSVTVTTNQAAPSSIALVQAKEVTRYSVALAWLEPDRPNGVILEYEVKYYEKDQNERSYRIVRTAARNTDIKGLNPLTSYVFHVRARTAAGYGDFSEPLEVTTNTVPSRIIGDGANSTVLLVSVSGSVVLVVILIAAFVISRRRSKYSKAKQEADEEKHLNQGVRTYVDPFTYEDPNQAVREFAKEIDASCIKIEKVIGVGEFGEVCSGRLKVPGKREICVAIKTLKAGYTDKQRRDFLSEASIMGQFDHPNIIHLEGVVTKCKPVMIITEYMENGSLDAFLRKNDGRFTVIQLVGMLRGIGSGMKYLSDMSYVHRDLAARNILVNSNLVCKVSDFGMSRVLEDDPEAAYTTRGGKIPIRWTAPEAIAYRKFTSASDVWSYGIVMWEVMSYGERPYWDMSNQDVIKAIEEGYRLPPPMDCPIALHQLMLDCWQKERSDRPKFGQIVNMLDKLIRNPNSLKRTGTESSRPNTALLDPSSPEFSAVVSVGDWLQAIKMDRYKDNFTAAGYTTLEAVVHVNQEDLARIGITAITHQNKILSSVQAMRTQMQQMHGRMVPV
# Sequence of UniProt Q96SB4 (whole entry, looked up): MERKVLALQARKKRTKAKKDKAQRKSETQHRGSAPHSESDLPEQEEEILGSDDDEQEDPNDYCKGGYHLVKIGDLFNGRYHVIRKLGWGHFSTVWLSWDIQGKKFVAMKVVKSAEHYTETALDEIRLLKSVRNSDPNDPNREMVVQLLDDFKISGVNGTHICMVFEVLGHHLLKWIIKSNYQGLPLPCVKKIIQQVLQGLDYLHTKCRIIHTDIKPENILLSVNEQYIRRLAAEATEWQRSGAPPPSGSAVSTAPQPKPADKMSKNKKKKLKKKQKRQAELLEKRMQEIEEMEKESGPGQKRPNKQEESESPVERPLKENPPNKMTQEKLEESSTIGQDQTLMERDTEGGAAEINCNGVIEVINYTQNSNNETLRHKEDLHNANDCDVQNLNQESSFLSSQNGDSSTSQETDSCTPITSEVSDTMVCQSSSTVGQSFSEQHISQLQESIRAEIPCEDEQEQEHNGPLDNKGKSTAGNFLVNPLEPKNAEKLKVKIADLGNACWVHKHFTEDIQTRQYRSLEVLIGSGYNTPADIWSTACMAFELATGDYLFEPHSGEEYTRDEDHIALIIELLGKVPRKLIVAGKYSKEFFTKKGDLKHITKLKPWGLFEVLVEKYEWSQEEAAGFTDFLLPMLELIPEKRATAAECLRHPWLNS
# Sequence of UniProt Q16654 (whole entry, looked up): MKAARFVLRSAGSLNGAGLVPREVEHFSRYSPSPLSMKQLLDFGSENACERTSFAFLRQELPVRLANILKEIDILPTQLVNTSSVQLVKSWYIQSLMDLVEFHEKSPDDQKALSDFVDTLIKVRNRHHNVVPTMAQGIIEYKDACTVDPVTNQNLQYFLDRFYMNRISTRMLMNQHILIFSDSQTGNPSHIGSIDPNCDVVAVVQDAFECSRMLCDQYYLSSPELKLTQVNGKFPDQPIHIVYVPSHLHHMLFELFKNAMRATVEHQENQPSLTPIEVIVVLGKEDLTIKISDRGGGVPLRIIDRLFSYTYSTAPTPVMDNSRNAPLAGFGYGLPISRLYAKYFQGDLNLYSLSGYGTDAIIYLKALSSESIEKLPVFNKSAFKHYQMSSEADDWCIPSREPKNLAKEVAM

# Block 1
# Medium: 1,9-decadiene/PBS
# pH: 7.4
Structure (SMILES),logD
CC(C)C[C@@H]1NC(=O)[C@H](C)NC(=O)[C@H](CC(C)C)NC(=O)[C@@H](CC(C)C)NC(=O)[C@H](CC(C)C)NC(=O)[C@H](C(C)C)NC(=O)[C@H](CCC(=O)N2CCCC2)NC1=O,-0.955
CC(C)C[C@@H]1NC(=O)[C@H](C)NC(=O)[C@H](Cc2cscn2)NC(=O)[C@@H](CC(C)C)NC(=O)[C@@H](CCC(=O)N2CCCC2)NC(=O)[C@H](CC(C)C)NC(=O)[C@@H](CC(C)C)NC1=O,-1.2
CC(C)C[C@@H]1NC(=O)[C@H](CC(C)C)NC(=O)[C@H](CC(C)C)NC(=O)[C@H](C(C)C)NC(=O)[C@@H](Cc2cscn2)NC(=O)[C@H](CCC(=O)N2CCCC2)NC(=O)[C@H](C)NC1=O,-2.28
CC(C)C[C@@H]1NC(=O)[C@H](CC(C)C)NC(=O)[C@@H](C(C)C)NC(=O)[C@H](Cc2cscn2)NC(=O)[C@@H](Cc2cscn2)NC(=O)[C@H](Cc2cscn2)NC(=O)[C@H](CCC(=O)N2CCCC2)NC1=O,-3.32
CC(C)C[C@@H]1NC(=O)[C@H](CCC(=O)N2CCCC2)NC(=O)[C@H](CC(C)C)NC(=O)[C@@H](CCC(=O)N2CCCC2)NC(=O)[C@H](CC(C)C)NC(=O)[C@@H](CC(C)C)NC(=O)[C@H](CC(C)C)NC1=O,-0.312
CC(C)C[C@@H]1NC(=O)[C@H](CC(C)C)NC(=O)[C@@H](CC(C)C)NC(=O)[C@H](C(C)C)NC(=O)[C@H](C)NC(=O)[C@H](Cc2cscn2)NC(=O)[C@H](CCC(=O)N2CCCC2)NC1=O,-2.32
CC(C)C[C@@H]1NC(=O)[C@H](C(C)C)NC(=O)[C@H](C)NC(=O)[C@H](CC(C)C)NC(=O)[C@H](C(C)C)NC(=O)[C@H](CC(C)C)NC(=O)[C@@H](CC(C)C)NC1=O,0.897
CC(C)C[C@@H]1NC(=O)[C@H](Cc2cscn2)NC(=O)[C@@H](CC(C)C)NC(=O)[C@H](C(C)C)NC(=O)[C@H](CC(C)C)NC(=O)[C@@H](CC(C)C)NC(=O)[C@H](CC(C)C)NC1=O,1.12
CC(C)C[C@@H]1NC(=O)[C@H](CC(C)C)NC(=O)[C@@H](CC(C)C)NC(=O)[C@H](C(C)C)NC(=O)[C@@H](Cc2cscn2)NC(=O)[C@H](C)NC(=O)[C@H](CCC(=O)N2CCCC2)NC1=O,-2.2
CC(C)C[C@@H]1NC(=O)[C@H](C)NC(=O)[C@H](Cc2cscn2)NC(=O)[C@H](C)NC(=O)[C@H](C(C)C)NC(=O)[C@H](CC(C)C)NC(=O)[C@@H](CC(C)C)NC1=O,-2.15
CC(C)C[C@@H]1NC(=O)[C@H](CC(C)C)NC(=O)[C@H](CC(C)C)NC(=O)[C@@H](C)NC(=O)[C@H](C(C)C)NC(=O)[C@H](C)NC(=O)[C@H](C)NC1=O,-2.42
CC(C)C[C@@H]1NC(=O)[C@H](C)NC(=O)[C@H](Cc2cscn2)NC(=O)[C@H](CCC(=O)N2CCCC2)NC(=O)[C@H](CC(C)C)NC(=O)[C@H](CC(C)C)NC(=O)[C@@H](CC(C)C)NC1=O,-1.72
CC(C)C[C@@H]1NC(=O)[C@H](CC(C)C)NC(=O)[C@H](CC(C)C)NC(=O)[C@H](CC(C)C)NC(=O)[C@@H](CCC(=O)N2CCCC2)NC(=O)[C@H](Cc2cscn2)NC(=O)[C@H](C)NC1=O,-1.3
CC(C)C[C@@H]1NC(=O)[C@H](CC(C)C)NC(=O)[C@@H](CC(C)C)NC(=O)[C@H](C(C)C)NC(=O)[C@H](C(C)C)NC(=O)[C@H](C)NC(=O)[C@H](C)NC1=O,-1.08

# Block 2
# Organism: Sarcocystis neurona
# Observed: parasite growth
# Tested at: 10 µM
Structure (SMILES),inhibition
O=c1[nH]c(=O)n(C2CCCO2)cc1F (stereo not drawn),4.5%
C[C@H](CCC(=O)O)[C@H]1CC[C@H]2[C@@H]3[C@@H](O)C[C@@H]4C[C@H](O)CC[C@]4(C)[C@H]3CC[C@]12C,-26.3%
O=C1CN(/N=C/c2ccc(-c3ccc([N+](=O)[O-])cc3)o2)C(O)=N1,66.2%
NC(=O)N1c2ccccc2CC(=O)c2ccccc21,58.9%
Cc1c(OCC(F)(F)F)ccnc1C[S+]([O-])c1nc2ccccc2[nH]1 (stereo not drawn),-120%
CC(N)C12CC3CC(CC(C3)C1)C2 (stereo not drawn),-23.5%
O=c1ncc(F)c[nH]1,20.3%
CN(C)c1ccc(O)c2c1C[C@H]1C[C@H]3[C@H](N(C)C)C(O)=C(C(N)=O)C(=O)[C@@]3(O)C(O)=C1C2=O,37.2%
C/C=C1\[C@H]2C=C(C)C[C@]1(N)c1ccc(=O)[nH]c1C2,-23%
COc1cc2nc(N3CCN(C(=O)c4ccco4)CC3)nc(N)c2cc1OC,83.5%
CC1(C)C[C@@H]1C(=O)N/C(=C\CCCCSC[C@H](N)C(=O)O)C(=O)[O-].[Na+],-28.9%
N[C@@H](C(=O)N[C@@H]1C(=O)N2C(C(=O)O)=C(Cl)CS[C@H]12)c1ccccc1,-19.9%
C[C@@H]1C[C@H]2[C@@H]3C[C@H](F)C4=CC(=O)C(Cl)=C[C@]4(C)[C@@]3(F)[C@@H](O)C[C@]2(C)[C@@]1(O)C(=O)CO,7.6%

# Block 3
# Target: 5-hydroxytryptamine receptor 6 (HTR6, Homo sapiens, UniProt P50406)
# Sequence of UniProt P50406 (whole entry, looked up): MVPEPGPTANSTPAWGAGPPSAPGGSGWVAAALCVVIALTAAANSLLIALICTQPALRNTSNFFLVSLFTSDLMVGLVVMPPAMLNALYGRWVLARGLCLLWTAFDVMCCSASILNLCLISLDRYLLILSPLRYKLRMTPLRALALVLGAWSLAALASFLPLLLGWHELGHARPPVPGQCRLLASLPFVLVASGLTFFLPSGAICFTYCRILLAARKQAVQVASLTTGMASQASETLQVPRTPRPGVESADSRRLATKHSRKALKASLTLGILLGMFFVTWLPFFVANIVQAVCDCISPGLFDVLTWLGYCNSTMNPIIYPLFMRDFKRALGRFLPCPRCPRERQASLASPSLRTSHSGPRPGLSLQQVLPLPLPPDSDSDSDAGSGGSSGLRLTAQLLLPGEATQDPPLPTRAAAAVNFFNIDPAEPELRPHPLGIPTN
# Observed: binding
# Method: radioligand binding
# Tested at: 10 µM
Compound,inhibition [%]
CC(=O)N1CCC(c2ccc(C(=O)NC(=N)N)cc2C(F)(F)F)CC1,1.25
O=C1c2ccc(Nc3ccc(F)cc3F)cc2CCc2ccc(OC[C@H](O)CO)cc21,14.8
O=C(Nc1ccc(-n2nc(-c3cccnc3)cc2C(F)(F)F)cn1)c1ccc(-c2ccccc2)c(F)c1,-16
CC(=O)Nc1c(F)cc(C(=O)N[C@H]2CC[C@H](O)CC2)cc1O[C@@H](C)c1ccccc1,11.4
Nc1c(C(=O)NCc2ccc(C(=O)NCCCC3CCCCC3)cc2)cnn1-c1ccccc1,26.8
Cc1c(N2CCCC2)nc2ccc(Br)cc2c1C(=O)NC[C@H](CCC(=O)O)c1ccccc1Cl,6.59
O=C([C@H]1C[C@H](O)CN1c1ccc(Cl)cc1)N1CC2COCC(C1)N2Cc1ccc(Cl)cc1,5.38
CN(C)C(=O)Cn1cc(-c2nc([C@@](C)(c3ccc(-c4cnc(N)nc4)cc3)C3CC3)no2)cn1,-10.1
O=C1CCc2cc(Nc3cc(OC4CCOCC4)c([N+](=O)[O-])cc3Cl)ccc2N1,-2.48
CN1C(=O)[C@@H](N2CCc3cn(Cc4ccccc4)nc3C2=O)COc2ccccc21,-3.95
CN1CCN(C(=O)C(C)(C)c2ccc(C(=O)Nc3cn4cc(-c5ccncc5)ccc4n3)cc2)CC1,-15.7
CCOCCn1cc(C(=O)Nc2ccc(-n3nc(-c4cccnc4)cc3C(F)(F)F)cn2)ccc1=O,0.656
O=C(Nc1cccnn1)N1CC(CC=Cc2cncc(Oc3ccc(C(F)(F)F)cn3)n2)C1,7.76
CC(=O)c1c(NS(C)(=O)=O)c2cc(-c3ccc(Cl)cc3)c(-c3ccc(Cl)cc3Cl)nc2n(C)c1=O,-11.5
CS(=O)(=O)NCC[C@H](NC(=O)c1cncc2c1cnn2-c1ccc(F)cc1)c1ccnc(S(C)(=O)=O)c1,-4.31
O=C(Nc1cccnn1)N1CCC(=Cc2cccc(Oc3ccc(C(F)(F)F)cn3)c2)CC1,40.6
CC1=C(C#N)C(c2ccc3c(c2)c(NC(=O)c2ccccc2C)nn3C)C(C#N)=C(C)N1,2.21
CCOC(=O)c1cc2cc(-c3cc(C(=O)NCc4ccc(C(=O)O)cc4)nn3C)ccc2[nH]1,4.01
O=C(Nc1cnc(Oc2ccc(F)cc2)nc1)N1CCc2ncccc2[C@@H]1c1ccc(F)cc1,-3.59
Cc1c[nH]c2nccc(Oc3c(F)cc(Nc4cc(Cl)nc(N)n4)cc3F)c12,-1.5
COc1nc2ccc([C@@](O)(c3ccccc3)C3CCN(C(C)=O)CC3)cc2c(Cl)c1Cc1ccc(-n2cccn2)cc1,8.8
Cc1nccc(COC(=O)N2C[C@@H]3[C@@H](CNC(=O)c4ccc5[nH]nnc5c4)[C@@H]3C2)n1,26.1
CC(=O)Nc1nc(CN2CCC[C@H](Cc3cc(C)nc(C)c3)C2)cs1,25.6
C[C@@H]1CN(c2cc(-c3nn(C)c4ccc(OC5(C)CC5)cc34)ncn2)C[C@H](C)O1,-11.3
CCCOc1ccc([C@H]2[C@H](C(=O)O)[C@@H](c3ccc4c(c3)OCO4)CN2CC(=O)Nc2c(CC)cccc2CC)cc1,-17.8

# Block 4
# SMILES: CC(C)S(=O)(=O)c1ccc2nccc(Nc3ccc4sc(C5CCCC5)nc4c3)c2c1.Cl
# Observed: kinase activity
# Action: inhibitor
# Tested at: 1 µM
target,remaining activity
"Ephrin type-B receptor 1 (EPHB1, Homo sapiens, UniProt P54762)",96%
"TRAF2 and NCK-interacting protein kinase (TNIK, Homo sapiens, UniProt Q9UKE5)",80%
"Serine/threonine-protein kinase DCLK2 (DCLK2, Homo sapiens, UniProt Q8N568)",126%
"Calcium/calmodulin-dependent protein kinase kinase 2 (CAMKK2, Homo sapiens, UniProt Q96RR4)",95%
"Dual specificity protein kinase CLK4 (CLK4, Homo sapiens, UniProt Q9HAZ1)",101%
"Rhodopsin kinase GRK7 (GRK7, Homo sapiens, UniProt Q8WTQ7)",99%
"Mitogen-activated protein kinase 8 (MAPK8, Homo sapiens, UniProt P45983)",100%
"Ephrin type-A receptor 4 (EPHA4, Homo sapiens, UniProt P54764)",111%
"Protein-tyrosine kinase 2-beta (PTK2B, Homo sapiens, UniProt Q14289)",107%
"SRSF protein kinase 1 (SRPK1, Homo sapiens, UniProt Q96SB4)",99%
"Serine/threonine-protein kinase tousled-like 1 (TLK1, Homo sapiens, UniProt Q9UKI8)",91%
"[Pyruvate dehydrogenase (acetyl-transferring)] kinase isozyme 4, mitochondrial (PDK4, Homo sapiens, UniProt Q16654)",100%
"G protein-coupled receptor kinase 5 (GRK5, Homo sapiens, UniProt P34947)",105%
"3-phosphoinositide-dependent protein kinase 1 (PDPK1, Homo sapiens, UniProt O15530)",114%
